Results gathered from unrelated publications.
Compare with care: the assays were run in different laboratories. Values joined by “and” are separate records of one study, mostly repeats; a detail may differ. Numbers after ± are the reported error.
Tumor necrosis factor receptor superfamily member 9/Nectin-4: Tumor necrosis factor receptor superfamily member 9/Nectin-4 (Homo sapiens, UniProt Q07011+Q96NY8)
Chain of UniProt Q07011 (whole entry, looked up): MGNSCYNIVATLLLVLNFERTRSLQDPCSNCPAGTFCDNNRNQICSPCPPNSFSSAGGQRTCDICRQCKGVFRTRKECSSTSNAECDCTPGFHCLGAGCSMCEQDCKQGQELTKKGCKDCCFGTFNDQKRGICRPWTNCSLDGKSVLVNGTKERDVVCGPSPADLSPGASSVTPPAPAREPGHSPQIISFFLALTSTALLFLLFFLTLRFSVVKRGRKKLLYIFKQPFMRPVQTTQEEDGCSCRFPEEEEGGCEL
Chain of UniProt Q96NY8 (whole entry, looked up): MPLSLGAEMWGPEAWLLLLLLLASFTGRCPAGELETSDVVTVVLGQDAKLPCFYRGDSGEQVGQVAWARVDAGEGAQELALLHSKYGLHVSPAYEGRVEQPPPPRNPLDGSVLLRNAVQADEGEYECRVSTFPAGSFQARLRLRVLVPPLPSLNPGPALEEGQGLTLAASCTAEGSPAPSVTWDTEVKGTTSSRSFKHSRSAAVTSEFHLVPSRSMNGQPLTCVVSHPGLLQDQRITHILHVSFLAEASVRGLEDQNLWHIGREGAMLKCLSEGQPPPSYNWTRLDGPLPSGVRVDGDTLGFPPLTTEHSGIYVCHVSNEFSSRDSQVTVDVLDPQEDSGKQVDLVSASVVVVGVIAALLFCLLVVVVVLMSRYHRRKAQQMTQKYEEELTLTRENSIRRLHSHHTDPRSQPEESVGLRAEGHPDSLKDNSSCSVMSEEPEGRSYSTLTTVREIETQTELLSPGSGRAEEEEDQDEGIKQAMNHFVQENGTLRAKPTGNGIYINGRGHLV
Chain of UniProt Q16853 (whole entry, looked up): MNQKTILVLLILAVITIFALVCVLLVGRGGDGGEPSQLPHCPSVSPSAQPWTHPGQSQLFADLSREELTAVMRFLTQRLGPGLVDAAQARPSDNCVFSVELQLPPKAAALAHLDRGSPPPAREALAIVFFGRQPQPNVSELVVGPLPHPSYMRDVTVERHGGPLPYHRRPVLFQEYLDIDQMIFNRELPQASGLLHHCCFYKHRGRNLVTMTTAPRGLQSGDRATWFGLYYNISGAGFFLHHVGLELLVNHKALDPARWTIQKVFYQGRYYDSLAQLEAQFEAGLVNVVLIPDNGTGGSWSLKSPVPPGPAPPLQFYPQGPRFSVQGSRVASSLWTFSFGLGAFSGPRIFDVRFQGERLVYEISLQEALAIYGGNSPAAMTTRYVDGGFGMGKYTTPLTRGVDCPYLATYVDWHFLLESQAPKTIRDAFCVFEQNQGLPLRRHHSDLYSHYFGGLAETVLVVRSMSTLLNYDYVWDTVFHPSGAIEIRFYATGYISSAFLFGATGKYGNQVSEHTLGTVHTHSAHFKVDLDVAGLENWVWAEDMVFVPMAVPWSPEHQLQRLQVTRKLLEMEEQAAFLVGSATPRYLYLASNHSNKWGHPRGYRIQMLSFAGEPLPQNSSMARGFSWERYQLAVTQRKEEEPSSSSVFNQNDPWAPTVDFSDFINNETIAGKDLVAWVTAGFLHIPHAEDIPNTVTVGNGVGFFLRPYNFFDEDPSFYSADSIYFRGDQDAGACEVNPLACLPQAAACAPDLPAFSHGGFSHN
Chain of UniProt P08684 (whole entry, looked up): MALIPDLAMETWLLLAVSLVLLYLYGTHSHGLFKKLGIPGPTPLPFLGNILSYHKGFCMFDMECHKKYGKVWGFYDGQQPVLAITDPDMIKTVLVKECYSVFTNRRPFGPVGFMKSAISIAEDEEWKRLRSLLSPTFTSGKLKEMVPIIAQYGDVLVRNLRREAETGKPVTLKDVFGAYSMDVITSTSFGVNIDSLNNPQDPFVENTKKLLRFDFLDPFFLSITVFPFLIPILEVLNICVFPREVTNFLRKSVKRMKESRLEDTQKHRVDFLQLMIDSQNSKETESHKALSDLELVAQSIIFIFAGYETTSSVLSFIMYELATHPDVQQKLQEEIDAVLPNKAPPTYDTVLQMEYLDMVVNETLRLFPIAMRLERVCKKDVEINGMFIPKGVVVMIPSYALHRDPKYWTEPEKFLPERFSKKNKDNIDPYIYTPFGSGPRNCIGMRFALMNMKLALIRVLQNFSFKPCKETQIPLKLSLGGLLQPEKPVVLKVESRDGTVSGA
Chain of UniProt P0DMM9 (whole entry, looked up): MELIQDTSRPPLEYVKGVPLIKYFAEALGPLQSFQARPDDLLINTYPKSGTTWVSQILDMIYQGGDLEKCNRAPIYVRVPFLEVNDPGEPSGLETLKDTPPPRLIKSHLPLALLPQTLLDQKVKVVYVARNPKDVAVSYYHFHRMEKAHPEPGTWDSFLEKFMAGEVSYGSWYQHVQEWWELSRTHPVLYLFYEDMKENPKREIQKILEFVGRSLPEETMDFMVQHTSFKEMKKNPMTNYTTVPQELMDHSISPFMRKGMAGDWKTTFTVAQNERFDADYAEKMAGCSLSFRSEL
Chain of UniProt Q96JM7 (whole entry, looked up): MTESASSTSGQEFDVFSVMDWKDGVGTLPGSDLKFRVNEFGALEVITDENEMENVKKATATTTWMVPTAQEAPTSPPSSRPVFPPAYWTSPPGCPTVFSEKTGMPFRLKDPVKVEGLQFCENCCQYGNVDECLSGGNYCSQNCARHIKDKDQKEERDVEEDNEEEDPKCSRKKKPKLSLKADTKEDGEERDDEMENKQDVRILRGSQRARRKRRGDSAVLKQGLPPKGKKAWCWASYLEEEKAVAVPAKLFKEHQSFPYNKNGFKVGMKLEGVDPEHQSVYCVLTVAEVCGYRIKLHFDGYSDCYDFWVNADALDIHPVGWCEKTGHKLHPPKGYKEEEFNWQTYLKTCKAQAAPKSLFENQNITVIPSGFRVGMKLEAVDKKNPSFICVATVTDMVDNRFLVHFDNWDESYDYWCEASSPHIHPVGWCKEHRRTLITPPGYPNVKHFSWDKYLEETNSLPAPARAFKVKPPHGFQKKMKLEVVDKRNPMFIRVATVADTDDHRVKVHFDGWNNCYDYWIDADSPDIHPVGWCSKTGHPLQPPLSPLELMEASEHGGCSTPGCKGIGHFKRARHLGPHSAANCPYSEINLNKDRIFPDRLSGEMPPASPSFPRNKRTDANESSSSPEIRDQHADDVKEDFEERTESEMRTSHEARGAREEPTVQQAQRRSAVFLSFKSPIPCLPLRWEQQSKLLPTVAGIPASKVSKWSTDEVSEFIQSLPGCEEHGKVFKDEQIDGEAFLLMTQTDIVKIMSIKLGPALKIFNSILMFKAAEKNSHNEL
Chain of UniProt Q12809 (whole entry, looked up): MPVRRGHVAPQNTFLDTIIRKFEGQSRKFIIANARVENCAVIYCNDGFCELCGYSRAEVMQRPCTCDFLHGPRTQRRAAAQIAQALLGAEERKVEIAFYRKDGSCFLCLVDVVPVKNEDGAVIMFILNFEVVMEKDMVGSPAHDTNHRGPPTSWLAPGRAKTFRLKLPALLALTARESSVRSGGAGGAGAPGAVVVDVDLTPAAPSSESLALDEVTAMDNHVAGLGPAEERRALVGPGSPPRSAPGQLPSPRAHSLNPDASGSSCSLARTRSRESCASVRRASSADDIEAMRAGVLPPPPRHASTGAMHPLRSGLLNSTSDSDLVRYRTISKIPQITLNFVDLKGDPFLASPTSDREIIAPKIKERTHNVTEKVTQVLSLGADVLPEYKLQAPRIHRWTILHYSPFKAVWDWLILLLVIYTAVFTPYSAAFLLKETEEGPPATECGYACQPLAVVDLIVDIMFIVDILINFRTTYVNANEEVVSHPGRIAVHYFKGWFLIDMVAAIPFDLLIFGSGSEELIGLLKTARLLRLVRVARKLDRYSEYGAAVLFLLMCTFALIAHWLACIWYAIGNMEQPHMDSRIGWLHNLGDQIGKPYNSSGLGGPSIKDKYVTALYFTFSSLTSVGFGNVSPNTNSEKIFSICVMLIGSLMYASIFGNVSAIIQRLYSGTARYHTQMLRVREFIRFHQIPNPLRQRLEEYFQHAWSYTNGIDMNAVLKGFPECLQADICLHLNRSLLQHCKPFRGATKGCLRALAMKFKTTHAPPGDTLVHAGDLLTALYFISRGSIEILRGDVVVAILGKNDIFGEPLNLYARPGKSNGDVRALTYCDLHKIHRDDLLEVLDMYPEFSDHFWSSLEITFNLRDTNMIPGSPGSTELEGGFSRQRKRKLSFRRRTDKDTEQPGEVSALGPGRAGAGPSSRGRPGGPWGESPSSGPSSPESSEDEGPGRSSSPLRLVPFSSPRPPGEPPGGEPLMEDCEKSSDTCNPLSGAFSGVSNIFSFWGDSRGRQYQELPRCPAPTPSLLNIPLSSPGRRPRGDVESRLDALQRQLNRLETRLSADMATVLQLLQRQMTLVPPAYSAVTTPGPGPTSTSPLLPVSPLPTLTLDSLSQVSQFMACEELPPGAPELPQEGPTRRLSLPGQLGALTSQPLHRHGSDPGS
Chain of UniProt P05177 (whole entry, looked up): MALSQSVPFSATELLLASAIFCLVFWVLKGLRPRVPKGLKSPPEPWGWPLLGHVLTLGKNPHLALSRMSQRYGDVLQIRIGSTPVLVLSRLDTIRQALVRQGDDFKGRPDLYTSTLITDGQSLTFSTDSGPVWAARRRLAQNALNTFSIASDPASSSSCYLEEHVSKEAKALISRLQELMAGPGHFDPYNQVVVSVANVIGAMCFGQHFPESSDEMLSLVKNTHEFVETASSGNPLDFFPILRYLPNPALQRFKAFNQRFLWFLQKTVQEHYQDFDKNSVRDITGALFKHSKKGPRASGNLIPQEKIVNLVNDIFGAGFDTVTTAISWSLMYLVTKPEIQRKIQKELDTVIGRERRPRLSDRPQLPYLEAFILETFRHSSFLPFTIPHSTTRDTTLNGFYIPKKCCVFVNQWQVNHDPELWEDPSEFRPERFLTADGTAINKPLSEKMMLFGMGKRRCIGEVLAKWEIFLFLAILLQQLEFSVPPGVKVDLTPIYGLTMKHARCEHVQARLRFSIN

SMILES = CCCC[C@@H]1NC(=O)[C@H](Cc2ccc(O)cc2)NC(=O)[C@@H]2CCCN2C(=O)[C@H](CC(=O)O)NC(=O)[C@H](C)NC(=O)[C@H](Cc2ccccc2)NC(=O)[C@@H]2CSCCC(=O)N3CN(CN(C3)C(=O)CCSC[C@@H](C(=O)N[C@@H](CNC(=O)CCc3cn(CC(=O)N[C@H]4CSCCC(=O)N5CN6CN(C5)C(=O)CCSC[C@H](NC(=O)[C@@H](CC(=O)O)NC(=O)[C@H](Cc5cccc7ccccc57)NC(=O)[C@@H]5CCCN5C4=O)C(=O)N[C@@H](CCSC)C(=O)N[C@@H](CCCCNC(=N)N)C(=O)N[C@@H](CC(=O)O)C(=O)N[C@@H](Cc4c[nH]c5ccccc45)C(=O)N[C@@H](CO)C(=O)N[C@@H]([C@@H](C)O)C(=O)N4CCC[C@H]4C(=O)N4C[C@H](O)C[C@H]4C(=O)N[C@@H](Cc4c[nH]c5ccccc45)C(=O)N[C@H](C(N)=O)CSCCC6=O)nn3)C(N)=O)NC1=O)C(=O)CCSC[C@H](NC(C)=O)C(=O)N[C@@H](CC(C)(C)C)C(=O)N1CCC[C@H]1C(=O)N[C@@H](CCC(=O)O)C(=O)N[C@H](C)C(=O)N1CCC[C@H]1C(=O)N[C@@H](Cc1ccc(O)cc1)C(=O)N2; target = Tumor necrosis factor receptor superfamily member 9/Nectin-4; assay = reporter gene, agonist, luciferase reporter; system = CD137 Jurkat reporter with HT-1376; conditions = 6 h, geometric mean; how to read = relative to: wells without compound; endpoint = Emax; result = 37 fold
SMILES = CC[C@H]1[C@@H](O)[C@@H]2[C@H](CC[C@]3(C)[C@@H]([C@H](C)CCNC(=O)NS(=O)(=O)c4ccc(C(C)(C)C)cc4)CC[C@@H]23)[C@@]2(C)CC[C@@H](O)C[C@@H]12; target = Cytochrome P450 3A4 (CYP3A4, Homo sapiens, UniProt P08684); system = human, plasma; conditions = geometric mean; endpoint = Tlast; result = 72 h
SMILES = CC1(C)CCC2(CC1)N[C@@H](C(=O)N[C@@H]1CC[C@@H](C(N)=O)OC1)[C@H](c1ccnc(Cl)c1F)[C@]21C(=O)Nc2cc(Cl)ccc21; target = ABCB1 (Homo sapiens, UniProt P08183); system = Caco-2; conditions = 1 µM, 120 min, with: elacridar 5 µM; endpoint = Papp(A-B); result = 5.07 ×10⁻⁶ cm/s
SMILES = C=CC(=O)N1C[C@H](Nc2ncnc3[nH]ccc23)CC[C@@H]1C; target = CYP; assay = substrate; system = human, plasma; conditions = oral, single dose, with: rifampicin multiple doses once daily; endpoint = AUC(0-t); result = 260 ng·h/mL
SMILES = CCCC[C@@H]1NC(=O)[C@H](Cc2ccc(O)cc2)NC(=O)[C@@H]2CCCN2C(=O)[C@H](CC(=O)O)NC(=O)[C@H](C)NC(=O)[C@H](Cc2ccccc2)NC(=O)[C@@H]2CSCCC(=O)N3CN(CN(C3)C(=O)CCSC[C@@H](C(=O)N[C@@H](CNC(=O)CCc3cn(CCOCCOCCOCCOCCOCCOCCOCCOCCOCCOCCOCCOCCOCCOCCOCCOCCOCCOCCOCCOCCOCCOCCOCCNC(=O)N[C@H]4CSCCC(=O)N5CN6CN(C5)C(=O)CCSC[C@H](NC(=O)[C@@H](CC(=O)O)NC(=O)[C@H](Cc5cccc7ccccc57)NC(=O)[C@@H]5CCCN5C4=O)C(=O)N[C@@H](CCSC)C(=O)N[C@@H](CCCCNC(=N)N)C(=O)N[C@@H](CC(=O)O)C(=O)N[C@@H](Cc4c[nH]c5ccccc45)C(=O)N[C@@H](CO)C(=O)N[C@@H]([C@@H](C)O)C(=O)N4CCC[C@H]4C(=O)N4C[C@H](O)C[C@H]4C(=O)N[C@@H](Cc4c[nH]c5ccccc45)C(=O)N[C@H](C(N)=O)CSCCC6=O)nn3)C(N)=O)NC1=O)C(=O)CCSC[C@H](NC(=O)[C@H](C)NC(C)=O)C(=O)N[C@@H]([C@@H](C)CC)C(=O)N[C@@H](CCC(=O)O)C(=O)N[C@@H](CCC(=O)O)C(=O)NCC(=O)N[C@@H](CCC(N)=O)C(=O)N[C@@H](Cc1ccc(O)cc1)C(=O)N2; target = Tumor necrosis factor receptor superfamily member 9/Nectin-4; assay = reporter gene, agonist, luciferase reporter; system = CD137 Jurkat reporter with HT-1376; conditions = 6 h, geometric mean; how to read = relative to: wells without compound; endpoint = Emax; result = 24 fold
SMILES = NCc1cc2c(cc1F)C(=O)N(C1CCC(=O)NC1=O)C2 (stereo not shown); target = AOC3 (Homo sapiens, UniProt Q16853); assay = substrate, LC-MS/MS; system = cirrhotic human liver lysate; conditions = 1000.00 µM, 60 min, pH 7.4; endpoint = concentration; result = 1360 ng/mL and 1700 ng/mL
SMILES = Cn1c(=O)c2c(ncn2C)n(C)c1=O; target = Cytochrome P450 1A2 (CYP1A2, Homo sapiens, UniProt P05177); system = human, plasma; conditions = oral, 200 mg, day 1, alone, arithmetic mean; endpoint = Cmax; result = 4280 ng/mL
SMILES = Cc1oc2ccccc2c1Cc1cc(I)c(OCC(=O)O)c(I)c1; target = KCNH2 (Homo sapiens, UniProt Q12809); assay = current activation, whole-cell patch clamp; system = HEK293 expressing hERG1; conditions = concentration not given, 4 mM K+, -20 mV; endpoint = Hill coefficient; result = 1.1
SMILES = CC(=O)NCCc1c[nH]c2ccc(O)cc12; target = SULT1A3 (Homo sapiens, UniProt P0DMM9); assay = substrate, sulfation, purified enzyme; conditions = 10 µM, 10 min, pH 7.0, 37 °C; endpoint = specific activity; result = 0.27 ± 0.01 nmol/min/mg
SMILES = CCCC[C@@H]1NC(=O)[C@H](Cc2ccc(O)cc2)NC(=O)[C@@H]2CCCN2C(=O)[C@H](CCC(=O)O)NC(=O)[C@H](C)NC(=O)[C@H](Cc2ccccc2)NC(=O)[C@@H]2CSCCC(=O)N3CN(CN(C3)C(=O)CCSC[C@H](NC(C)=O)C(=O)N[C@@H](CC(C)(C)C)C(=O)N3CCC[C@H]3C(=O)N[C@@H](CCC(=O)O)C(=O)N[C@H](CCCCNC(=O)CCc3cn(CCOCCOCCOCCN(CCOCCOCCOCCC(=O)N[C@H]4CSCCC(=O)N5CN6CN(C5)C(=O)CCSC[C@H](NC(=O)[C@@H](CC(=O)O)NC(=O)[C@H](Cc5cccc7ccccc57)NC(=O)[C@@H]5CCCN5C4=O)C(=O)N[C@@H](CCSC)C(=O)N[C@@H](CCCCNC(=N)N)C(=O)N[C@@H](CC(=O)O)C(=O)N[C@@H](Cc4c[nH]c5ccccc45)C(=O)N[C@@H](CO)C(=O)N[C@@H]([C@@H](C)O)C(=O)N4CCC[C@H]4C(=O)N4C[C@H](O)C[C@H]4C(=O)N[C@@H](Cc4c[nH]c5ccccc45)C(=O)N[C@H](C(N)=O)CSCCC6=O)CCOCCOCCOCCn4cc(CCC(=O)NCCCC[C@H]5NC(=O)[C@H](CCC(=O)O)NC(=O)[C@@H]6CCCN6C(=O)[C@H](CC(C)(C)C)NC(=O)[C@@H](NC(C)=O)CSCCC(=O)N6CN7CN(C6)C(=O)CCSC[C@H](NC(=O)[C@H](Cc6ccc(O)cc6)NC(=O)[C@@H]6CCCN6C5=O)C(=O)N[C@@H](Cc5ccccc5)C(=O)N[C@@H](C)C(=O)N[C@@H](CCC(=O)O)C(=O)N5CCC[C@H]5C(=O)N[C@@H](Cc5ccc(O)cc5)C(=O)N[C@@H](CCCC)C(=O)N[C@H](C(N)=O)CSCCC7=O)nn4)nn3)C(=O)N3CCC[C@H]3C(=O)N[C@@H](Cc3ccc(O)cc3)C(=O)N2)C(=O)CCSC[C@@H](C(N)=O)NC1=O; target = Tumor necrosis factor receptor superfamily member 9/Nectin-4; assay = reporter gene, agonist, luciferase reporter; system = CD137 Jurkat reporter with HT-1376; conditions = 6 h, geometric mean; how to read = relative to: wells without compound; endpoint = Emax; result = 11 fold
SMILES = O=C(O)CN1Cc2cccc(n2)CN(CC(=O)O)Cc2cccc(n2)C1; target = Mn2+; assay = potentiometric titration; system = 0.16 M NaCl; conditions = 25 °C; endpoint = log stability constant, hydroxo complex; result = 10.2
SMILES = CCc1c2c(nc3ccc(O)cc13)-c1cc3c(c(=O)n1C2)COC(=O)[C@]3(O)CC; target = UGT (mouse); assay = glucuronidation, substrate; system = FVB mouse, intestinal S9 fraction; conditions = 30 min, pH 7.4; endpoint = Km; result = 2.63 ± 3.39 µM
SMILES = CCCC[C@@H]1NC(=O)[C@H](Cc2ccc(O)cc2)NC(=O)[C@@H]2CCCN2C(=O)[C@H](CC(=O)O)NC(=O)[C@H](C)NC(=O)[C@H](Cc2ccccc2)NC(=O)[C@@H]2CSCCC(=O)N3CN(CN(C3)C(=O)CCSC[C@@H](C(=O)N[C@@H](C)C(N)=O)NC1=O)C(=O)CCSC[C@H](NC(C)=O)C(=O)N[C@@H](CC(C)(C)C)C(=O)N1CCC[C@H]1C(=O)N[C@@H](CCCCNC(=O)CCc1cn(CC(=O)N[C@H]3CSCCC(=O)N4CN5CN(C4)C(=O)CCSC[C@H](NC(=O)[C@@H](CC(=O)O)NC(=O)[C@H](Cc4cccc6ccccc46)NC(=O)[C@@H]4CCCN4C3=O)C(=O)N[C@@H](CCSC)C(=O)N[C@@H](CCCCNC(=N)N)C(=O)N[C@@H](CC(=O)O)C(=O)N[C@@H](Cc3c[nH]c4ccccc34)C(=O)N[C@@H](CO)C(=O)N[C@@H]([C@@H](C)O)C(=O)N3CCC[C@H]3C(=O)N3C[C@H](O)C[C@H]3C(=O)N[C@@H](Cc3c[nH]c4ccccc34)C(=O)N[C@H](C(N)=O)CSCCC5=O)nn1)C(=O)N[C@H](C)C(=O)N1CCC[C@H]1C(=O)N[C@@H](Cc1ccc(O)cc1)C(=O)N2; target = Tumor necrosis factor receptor superfamily member 9/Nectin-4; assay = reporter gene, agonist, luciferase reporter; system = CD137 Jurkat reporter with HT-1376; conditions = 6 h, geometric mean; how to read = relative to: wells without compound; endpoint = Emax; result = 42 fold
SMILES = O=C(c1ccc(C(=O)N2CCC(N3CCCC3)CC2)c(Nc2ccccc2)c1)N1CCC(N2CCCC2)CC1; target = Lethal(3)malignant brain tumor-like protein 3 (Homo sapiens, UniProt Q96JM7); assay = FRAP; system = human cells; conditions = 0.5 µM; endpoint = FRAP recovery half-time; result = 20.3 s
SMILES = CCCC[C@@H]1NC(=O)[C@H](Cc2ccc(O)cc2)NC(=O)[C@@H]2CCCN2C(=O)[C@H](CC(=O)O)NC(=O)[C@H](C)NC(=O)[C@H](Cc2ccccc2)NC(=O)[C@@H]2CSCCC(=O)N3CN(CN(C3)C(=O)CCSC[C@@H](C(=O)N[C@@H](CNC(=O)CCc3cn(CCOCCOCCOCCOCCOCCOCCOCCOCCOCCOCCNC(=O)N[C@H]4CSCCC(=O)N5CN6CN(C5)C(=O)CCSC[C@H](NC(=O)[C@@H](CC(=O)O)NC(=O)[C@H](Cc5cccc7ccccc57)NC(=O)[C@@H]5CCCN5C4=O)C(=O)N[C@@H](CCSC)C(=O)N[C@@H](CCCCNC(=N)N)C(=O)N[C@@H](CC(=O)O)C(=O)N[C@@H](Cc4c[nH]c5ccccc45)C(=O)N[C@@H](CO)C(=O)N[C@@H]([C@@H](C)O)C(=O)N4CCC[C@H]4C(=O)N4C[C@H](O)C[C@H]4C(=O)N[C@@H](Cc4c[nH]c5ccccc45)C(=O)N[C@H](C(N)=O)CSCCC6=O)nn3)C(N)=O)NC1=O)C(=O)CCSC[C@H](NC(=O)[C@H](C)NC(C)=O)C(=O)N[C@@H]([C@@H](C)CC)C(=O)N[C@@H](CCC(=O)O)C(=O)N[C@@H](CCC(=O)O)C(=O)NCC(=O)N[C@@H](CCC(N)=O)C(=O)N[C@@H](Cc1ccc(O)cc1)C(=O)N2; target = Tumor necrosis factor receptor superfamily member 9/Nectin-4; assay = reporter gene, agonist, luciferase reporter; system = CD137 Jurkat reporter with HT-1376; conditions = 6 h, geometric mean; how to read = relative to: wells without compound; endpoint = Emax; result = 23 fold
SMILES = COc1cc(O)c(CC=C(C)C)c(O)c1C(=O)/C=C/c1ccc(O)cc1; target = CYP2B6 (human); assay = enzyme activity, inhibitor; system = human liver microsomes; conditions = 10 µM, pH 7.4, with: bupropion; endpoint = inhibition; result = 43.9 ± 1.3%

Repeated from above:
SMILES = CC1(C)CCC2(CC1)N[C@@H](C(=O)N[C@@H]1CC[C@@H](C(N)=O)OC1)[C@H](c1ccnc(Cl)c1F)[C@]21C(=O)Nc2cc(Cl)ccc21; target = ABCB1 (Homo sapiens, UniProt P08183); system = Caco-2; conditions = 1 µM, 120 min, with: elacridar 5 µM; endpoint = Papp(A-B); result = 5.07 ×10⁻⁶ cm/s
SMILES = C=CC(=O)N1C[C@H](Nc2ncnc3[nH]ccc23)CC[C@@H]1C; target = CYP; assay = substrate; system = human, plasma; conditions = oral, single dose, with: rifampicin multiple doses once daily; endpoint = AUC(0-t); result = 260 ng·h/mL
